Published values from different studies.
Compare with care: the assays were run in different laboratories. ± gives the spread as reported.
MMP2: 72 kDa type IV collagenase (MMP2, Homo sapiens, UniProt P08253)
Urease: Urease (Canavalia ensiformis, UniProt P07374)
HDAC1: Histone deacetylase 1 (HDAC1, Homo sapiens, UniProt Q13547)

SMILES	target	test	system	setting	scale	IC50
CC(C)C[C@H](NC(=O)[C@H](CC(=O)O)NC(=O)CNC(=O)[C@H](CCCNC(=N)N)NC(=O)[C@H](CC(C)C)NC(=O)[C@H](CC(N)=O)NC(=O)[C@@H]1CCCN1C(=O)[C@@H](NC(=O)[C@H](C)NC(=O)[C@H](CC(N)=O)NC(=O)CCOCCOCCOCCOCCOCCOCCOCCOCCOCCOCCOCCOCCOCCOCCOCCOCCOCCOCCOCCOCCOCCOCCOCCOCCOCCOCCOCCOCCNC(=O)CN1CCN(CC(=O)O)CCN(CC(=O)O)CC1)C(C)C)C(=O)N[C@@H](CCC(N)=O)C(=O)N[C@H](C(=O)N[C@@H](CC(C)C)C(=O)N[C@@H](C)C(=O)N[C@@H](CCC(N)=O)C(=O)N[C@@H](CCCNC(=N)N)C(=O)N[C@H](C(=O)N[C@@H](C)C(=O)N[C@@H](CCCNC(=N)N)C(=O)N[C@H](C(=O)NCCOCCOCCOCCOCCOCCOCCOCCOCCOCCOCCOCCOCCOCCOCCOCCOCCOCCOCCOCCOCCOCCOCCOCCOCCOCCOCCOCCOCCC(N)=O)[C@@H](C)O)C(C)C)C(C)C	Integrin alpha-V/beta-3 (Homo sapiens, UniProt P05106+P06756)	binding, competitive ELISA		no binding up to 10 µM, with: biotinylated vitronectin		> 10 µM
COc1ccc(F)cc1S(=O)(=O)Nc1cnc2c(c1)C(=O)NCCO2	Alkaline phosphatase, tissue-nonspecific isozyme (Mus musculus, UniProt P09242)	enzyme activity, inhibitor				0.013 µM
CSCC[C@H](NC(=O)[C@H](Cc1ccccc1)NC(=O)[C@H](Cc1c[nH]cn1)NC(=O)CNC(=O)[C@@H](NC(=O)[C@H](C)NC(=O)[C@H](Cc1c[nH]c2ccccc12)NC(=O)[C@H](CCC(N)=O)NC(=O)[C@@H]1CCCN1C(=O)[C@@H](NC(=O)[C@@H]1CCC(=O)N1)C(C)C)C(C)C)C(N)=O	Neuromedin-B receptor (NMBR, Homo sapiens, UniProt P28336)	NMBR activity, cell-based				0.001 to 0.003 µM
CC(C)[C@H](NC(=O)c1ccc(CCc2nc3c(c(=O)[nH]2)CCC3)cc1)C(=O)NC1COC1	MMP2	enzyme activity, inhibitor				> 5 µM
CN(C)[C@H]1C[C@@]23CC[C@@]4(O2)C(=CC[C@]2(C)[C@@H](c5ccc6ccncc6c5)CC[C@H]24)C=C3[C@@H](O)[C@@H]1O	Serine/threonine-protein kinase haspin (HASPIN, Homo sapiens, UniProt Q8TF76)	enzyme activity, inhibitor, radiometric				0.13 µM
Nc1nc2c(c(=O)[nH]1)[n+](Cc1ccc(OS(=O)(=O)F)cc1)cn2[C@@H]1O[C@H](COP(=O)(O)O)[C@@H](O)[C@H]1O	7-methylguanosine phosphate-specific 5'-nucleotidase (NT5C3B, Homo sapiens, UniProt Q969T7)	enzyme activity, inhibitor, absorbance		pH 7.5		16.9 µM
CCCC[C@H](NC(=O)[C@H](C)NC(=O)[C@H](CCC(=O)O)NC(=O)[C@H](Cc1ccccc1)NC[C@H](CC(C)C)NC(=O)[C@@H](NC(=O)[C@@H](N)CCCNC(=N)N)C(C)C)C(=O)O	Gag-Pol polyprotein, protease (gag-pol, Human immunodeficiency virus 1, UniProt P12497)	enzyme activity, inhibitor, FRET	NL4-3 wild type			0.0026 ± 0.0004 µM
NC(=O)COC(=O)c1cc(Br)ccc1F	Urease	enzyme activity, inhibitor, absorbance				0.32 µM
OC[C@H]1NCC[C@@H](O)[C@H]1O	Alpha-galactosidase A (GLA, Homo sapiens, UniProt P06280)	enzyme activity, inhibitor, absorbance		pH 4.5		> 100 µM
N#Cc1ccc(NC(=O)c2cccnc2)cc1Cl	Epidermal growth factor receptor (EGFR, Homo sapiens, UniProt P00533)	kinase activity, inhibitor, luminescence			limit value	< 10 µM
Cc1cc(S(=O)(=O)Nc2ncccn2)c(F)cc1N(C)C1CCN([C@H](C)c2ccccc2)CC1	Sodium channel protein type 1 subunit alpha (SCN1A, Homo sapiens, UniProt P35498)	ion current, inhibitor				294 µM
F[P-](F)(F)(F)(F)F.OCP(CO)CO.OCP(CO)CO.OCP(CO)CO.OCP(CO)CO.[Cu+]	PSMB6/PSMB5/PSMB7 (Homo sapiens, UniProt P28072+P28074+Q99436)	proteasome CT-L activity, inhibitor	LoVo	24 h		31 µM
CC[C@H](C)[C@H](NC(=O)[C@@H](N)C(C)C)C(=O)N[C@@H](Cc1ccc(O)cc1)C(=O)NCC(=O)N1CCC[C@H]1C(=O)N[C@@H](CO)C(=O)N[C@H](C(=O)N[C@@H](Cc1ccccc1)C(=O)O)C(C)C	Angiotensin-converting enzyme (ACE, Homo sapiens, UniProt P12821)	enzyme activity, inhibitor, HPLC				131 µM
COC(=O)C=CCCC(NC(=O)c1ccncc1C(=O)O)C(=O)NC(C(=O)N1CC(=O)CC1C(=O)NC(C(=O)NC(C(N)=O)C1CCCCC1)C1CCCCC1)C(C)(C)C (stereo not drawn)	Protein-glutamine gamma-glutamyltransferase E (Homo sapiens, UniProt Q08188)	enzyme activity, inhibitor				66.5 µM
Cn1cc(C(=O)Nc2ccccn2)c2ccccc21	Procathepsin L (CTSL, Homo sapiens, UniProt P07711)	enzyme activity, inhibitor, FRET				> 100 µM
O=C(CCCCCCC(=O)Nc1ccc(N=Nc2ccccc2)cc1)NO	HDAC1	enzyme activity, inhibitor		cis isomer, irradiated		0.045 ± 0.008 µM
CC(C)[C@H](NC(=O)c1ccc(CCc2nc3c(c(=O)[nH]2)CCC3)cc1)C(=O)NC1CNC1	MMP2	enzyme activity, inhibitor				> 5 µM
CC[C@H](C)[C@H](NC(=O)[C@H](CC(C)C)NC(=O)[C@@H](NC(=O)[C@@H](N)CCCCN)[C@@H](C)CC)C(=O)N[C@@H](Cc1ccc(O)cc1)C(=O)NCC(=O)O	Angiotensin-converting enzyme (ACE, Oryctolagus cuniculus, UniProt P12822)	enzyme activity, inhibitor				53.3 µM
C=Cc1cc(OC)c2c(c1)c(=O)oc1c2cc(OC)c2c(O)ccc([C@@H]3O[C@H](C)[C@H](O)[C@@](C)(O)[C@H]3O)c21	Bifunctional protein GlmU (Staphylococcus aureus, UniProt Q5HIH6, G277S)	enzyme activity, inhibitor, absorbance				26.1 µM
CC[C@H](C)[C@H](NC(C)=O)C(=O)N[C@@H](C)C(=O)N[C@@H](CCC(=O)O)C(=O)N[C@@H](CCC(N)=O)C(=O)N[C@@H](CC(C)C)C(=O)N[C@@H](CCCNC(=N)N)C(=O)N[C@@H](CCCNC(=N)N)C(=O)N[C@@H](Cc1ccc(OS(=O)(=O)F)cc1)C(=O)NCC(=O)N[C@@H](CC(=O)O)C(=O)N[C@@H](CCCNC(=N)N)C(=O)N[C@@H](Cc1ccccc1)C(N)=O	Induced myeloid leukemia cell differentiation protein Mcl-1 (MCL1, Homo sapiens, UniProt Q07820)	BIM BH3 peptide binding, inhibitor, DELFIA displacement		2 h preincubation		> 100 µM

SMILES	target	test	system	setting	scale	IC50
CC(=O)N1CCC[C@H]1C(=O)N[C@@H](CC(C)C)C(=O)N[C@H]1C[C@H](CCCCCCCCc2ccccc2)C(=O)NCCCC[C@@H](C(N)=O)NC(=O)[C@H]([C@@H](C)OP(=O)(O)O)NC(=O)[C@H](CO)NC1=O	Serine/threonine-protein kinase PLK3, polo-box domain (PLK3, Homo sapiens, UniProt Q9H4B4)	enzyme activity, inhibitor				1.1 ± 0.06 µM
CN(C)c1ccc(C(=O)NCc2ccc(CNC(=O)CS)cc2)cc1	HDAC1	enzyme activity, inhibitor				14.7 µM
CC(C)[C@H](NC(=O)N[C@H](C(=O)N[C@H]1/C=C/CCNC(=O)/C=C/[C@H](C(C)C)NC1=O)C(C)C)C(=O)O	Proteasome subunit beta type-10, trypsin-like site (Homo sapiens, UniProt P40306)	enzyme activity, inhibitor, fluorescence				0.67 µM
O=C(Nc1ccccc1)c1ccccc1O	HDAC1	enzyme activity, inhibitor, fluorescence				> 10 µM
CCNCCN(C)c1ccc(Nc2cc(NC3CC3)n3ncc(C#N)c3n2)cc1NC(=O)CC	Casein kinase II subunit alpha' (CSNK2A2, Homo sapiens, UniProt P19784)	target engagement in cells, BRET				0.126 µM
C[C@@]12CC[C@@H]3c4cc(Cl)c(O)c(Cl)c4CC[C@H]3[C@@H]1CCC2=O	Aldo-keto reductase family 1 member C3 (AKR1C3, Homo sapiens, UniProt P42330)	enzyme activity, inhibitor, absorbance		pH 9		12.8 µM
N[C@H](C(=O)N1CCCC1)C1CCN(c2nccc3c(-c4ncc(Cl)cc4Cl)cccc23)CC1	Protein-arginine deiminase type-3 (PADI3, Homo sapiens, UniProt Q9ULW8)	enzyme activity, inhibitor, absorbance				0.106 µM
N#C[C@@]1(c2ccc3c(N)ncnn23)O[C@H](COP(=O)(O)OP(=O)(O)OP(=O)(O)O)[C@@H](O)[C@H]1O	DNA polymerase beta (POLB, Homo sapiens, UniProt P06746)	enzyme activity, inhibitor				> 200 µM
CCCC[C@H](NC(=O)[C@H](Cc1ccccc1)NC(=O)CNC(=O)[C@@H](C)NC(=O)[C@@H](N)Cc1ccc(O)cc1)C(=O)N1CCC[C@H]1C(=O)N[C@@H](CC(C)C)C(=O)N[C@@H](CO[C@@H]1O[C@H](CO)[C@@H](O)[C@H](O)[C@H]1O)C(=O)N[C@@H](Cc1c[nH]c2ccccc12)C(=O)NCc1cc(C(F)(F)F)cc(C(F)(F)F)c1	Substance-P receptor (TACR1, Homo sapiens, UniProt P25103)	ligand displacement, radioligand				0.000117 µM
COc1cc(-c2nn(C3CCC(N4CCN(C)CC4)CC3)c3ncnc(N)c23)ccc1NC(=O)OCc1ccccc1 (stereo not drawn)	LIM domain kinase 2 (LIMK2, Homo sapiens, UniProt P53671)	enzyme activity, inhibitor				0.79 µM
CCC(CC)OC1C=C(C(=O)OC(C)OC(=O)C(N)C(C)C)CC(NC(=N)N)C1NC(C)=O (mixture of isomers)	Solute carrier family 15 member 1 (SLC15A1, Homo sapiens, UniProt P46059)	transporter uptake, inhibitor, radiometric		pH 6		< 1000 µM
NC1CCc2cc(O)c(O)cc2C1 (stereo not drawn)	Carbamate kinase (Giardia intestinalis, UniProt A8BB85)	enzyme activity, inhibitor, coupled luminescence				13 µM
CC(=O)NCP(=O)(O)O	Urease	inhibitor		pH 7		> 1000 µM
CC(C)[C@H](NC(=O)[C@@H](N)Cc1ccc(O)cc1)C(=O)N[C@@H](CO)C(=O)NCC(=O)N[C@@H](CCCCN)C(=O)N[C@@H](C)C(=O)N[C@@H](CCCNC(=N)N)C(=O)NCC(=O)N[C@@H](Cc1c[nH]c2ccccc12)C(=O)N[C@@H](Cc1ccccc1)C(=O)O	DNA dC->dU-editing enzyme APOBEC-3G (APOBEC3G, Homo sapiens, UniProt Q9HC16)	deamination activity, inhibitor, PCR/StuI restriction		pH 7.4, 37 °C, with: ssDNA substrate 1 fmol/µL		> 100 µM
O=C1c2ccc(O)c(O)c2C(=O)N1Cc1ccc(F)c(Cl)c1	Gag-Pol polyprotein, integrase (gag-pol, Human immunodeficiency virus 1, UniProt P12497)	strand transfer, inhibitor, gel-based		recombinant wild-type integrase		0.5 ± 0.1 µM
CCCCCc1cc(O)c2c(c1)OC(C)(C)C1CCC(C(=O)OC3OC(C(=O)O)C(O)C(O)C3O)=CC21 (stereo not drawn)	Cytochrome P450 2B6 (CYP2B6, Homo sapiens, UniProt P20813)	inhibitor	HEK293 overexpressing CYP2B6, recombinant microsomes	pH 7.4, corrected for incubation binding, with: bupropion		2.5 ± 0.72 µM
CC(=O)N[C@@H](Cc1ccccc1)C(=O)N[C@@H](CC(C)C)C(=O)N[C@H](C(=O)N[C@@H](CC(=O)O)C(=O)CCl)[C@@H](C)O	Caspase-4 (CASP4, Homo sapiens, UniProt P49662)	enzyme activity, inhibitor, fluorescence				> 100 µM
Nc1ncnc2c1ncn2[C@@H]1O[C@H](CSCCNC(=O)NCCc2ccccc2)[C@@H](O)[C@H]1O	Protein arginine N-methyltransferase 7 (PRMT7, Homo sapiens, UniProt Q9NVM4)	enzyme activity, inhibitor, radiometric				14 µM
CC(=O)CCC1C(=O)NC(C(C)C)C(=O)NC(Cc2cccc(O)c2)C(=O)N2CCCC(N2)C(=O)OC(C(C)=CC=CC(=O)N2CCCCO2)CC=CC=CC(O)C(C)C1O (stereo not drawn)	Bile salt export pump (ABCB11, Homo sapiens, UniProt O95342)	efflux transport, inhibitor	membrane vesicles	with: taurocholate 2 µM		29.3 µM
